Measured values gathered from unrelated publications.
Lines come from different studies, so protocols differ. Several values in a cell are separate wells, animals, samples, runs or records.
CDK2 with cyclin E1: Cyclin-dependent kinase 2, with cyclin E1 (CDK2, Homo sapiens, UniProt P24941)
CDK2: Cyclin-dependent kinase 2 (CDK2, Homo sapiens, UniProt P24941)
CDK2 with cyclin A: Cyclin-dependent kinase 2, with cyclin A (CDK2, Homo sapiens, UniProt P24941)

| Structure (SMILES) | target | assay | test system | conditions | how to read | measurement | result |
| --- | --- | --- | --- | --- | --- | --- | --- |
| C=CC(=O)N1Cc2nc(-c3cc(-c4cc(Cl)cnc4Cl)c(F)cc3F)n(-c3ccncn3)c2C1 | CDK2 with cyclin E1 | cell-free assay, inhibitor |  | 1 µM |  | inhibition | -1.3% |
| COc1cc(Nc2nccc(-c3cnn4nc(OC)ccc34)n2)cc(C(F)(F)F)c1 | CDK2 | binding, competition with immobilised ligand |  | 1 µM |  | remaining binding | 100% |
| CCN1CCN(Cc2ccc(C(=O)Nc3ccc(C)c(NCc4cnc5[nH]ccc5c4OC)c3)cc2C(F)(F)F)CC1 | CDK2 | binding, competition with immobilised ligand |  | 1 µM |  | remaining binding | 100% |
| CC(C)=CC1OC(C)(C)C2C=C3C(=O)C(Cl)=CC(O)C3C3C(O)C4OC4C(=O)C132 (stereo not shown) | CDK2 | cell-free assay, competition with immobilised ligand |  | 10 µM |  | remaining binding | 89% |
| Nc1ncc2c(n1)-c1c([nH]c3ccc(C4=CCOCC4)cc13)CCC2 | CDK2 | binding, competition with immobilised ligand |  | 1 µM |  | remaining binding | 100% |
| Cc1cnc2nc1Nc1cccc(c1)COC/C=C/COCc1cc(ccc1OCCN1CCOCC1)N2 | CDK2 | cell-free assay |  | 0.1 µM |  | remaining signal | 97% |
| CNC(=O)C1CCCN(C(=O)C2CC3CCC2N3C(=O)[C@@H]2C[C@@H](O)CN2C(=O)NCc2cccc(Cl)c2F)C1 (mixture of isomers) | CDK2 | degrader, Western blot | A549 | concentration not given, 24 h after washout |  | protein reduction | > 50% |
| Cc1cccc(O[C@H]2CCC[C@@H](C(C)CNCc3ccncc3)C2)c1 (relative stereo) | CDK2 | kinase activity, kinome panel screening |  | 1 µM |  | inhibition | -3% |
| Cc1ccc(C)c(-c2ccc3nc(NC(=O)C4CCCCC4)nn3c2)c1 | CDK2 with cyclin A | enzyme activity, Dundee kinase panel |  | 10 µM |  | remaining activity | 90% |
| CN1CCN(Cc2ccc(-c3ccc(CO[C@H]4CCC[C@@H]4NC(=O)c4cc(-c5cnn(C)c5)cnc4N)cc3)cc2)CC1 | Cyclin-dependent kinase 2, with cyclin A1 (CDK2, Homo sapiens, UniProt P24941) | enzyme activity, inhibitor |  | 0.1 µM |  | inhibition | -4% |
| CN1CCN(Cc2ccc(NC(=O)c3cccc(C#Cc4cnc(N)c5ncccc45)c3)cc2C(F)(F)F)CC1 | CDK2 | cell-free assay, competition with immobilised ligand |  | 50 nM |  | remaining binding | 81% |
| CCn1cc(C(=O)O)c(=O)c2c(N)c(F)c(NC3CCCCC3)cc21 | Cyclin-dependent kinase 2, with cyclin A2 (CDK2, Homo sapiens, UniProt P24941) | kinase activity |  | 0.1 µM, with: ATP at Km |  | inhibition | 41% |
| O=C=[N][Ru-4]123([n]4c5ccc(O)cc5c5c6c(c7cc(F)c[n+]1c7c54)C(=O)NC6=O)[S+]1CC[S+]2CC[S+]3CC1 (stereo not shown) | CDK2 with cyclin A | enzyme activity |  | 100 nM, human enzyme, with: 10 µM ATP | baseline: untreated | remaining activity | 115% |
| Cc1cccc(-c2ccc3nc(NC(=O)C4CCOCC4)nn3c2)c1 | CDK2 with cyclin A | enzyme activity, Dundee kinase panel |  | 10 µM |  | remaining activity | 98% |
| COc1ccc(NC(=O)Nc2ccc3c(c2)C(=O)N(C(C)CO)CC(C)C(CN(C)Cc2ccc4c(c2)OCO4)O3)cc1 (stereo not shown) | CDK2 with cyclin A | kinase activity, KinaseProfiler |  | 0.03 µM, species human | baseline: control | remaining activity | 88% |
| COCC12C(=O)NC3C4(C(OC)CC1O)C1CC5(O)C(OC)C(O)C(OC(C)=O)(C1C5OC(=O)c1ccccc1)C3(O)C(OC)C24 (stereo not shown) | CDK2 with cyclin A | kinase activity, inhibitor, ProQinase kinase profiling |  | 25 µM | baseline: control | remaining activity | 106% and 110% |
| CN1C[C@@H](c2c[nH]c3cc(Br)ccc23)NC[C@@H]1c1c[nH]c2cc(Br)ccc12 | CDK2 with cyclin E1 | enzyme activity, inhibitor |  | 10 µM |  | remaining activity | 101% |
| Cc1cc(C)nc(Nc2ccc([C@@H]3CCCN(C(=O)/C=C/c4csc(C)n4)C3)nc2)n1 | CDK2 | enzyme activity, inhibitor, ADP detection |  | 1 µM |  | activity vs control | 95% |
| C=CC(=O)N1CCc2ccc(-n3c(=O)ccc4cnc5ccc(-c6cnn(C)c6)cc5c43)cc21 | CDK2 | KINOMEscan |  | 1 µM | baseline: DMSO control | remaining binding | 92% |
| COc1c(Cl)cccc1Nc1c(-c2ccncc2C#C[C@@]2(C)CCCN2C(=O)/C=C/CN(C)C)[nH]c2c1C(=O)NCC2 | CDK2 | binding, competition with immobilised ligand |  | 3 µM |  | remaining binding | 97% |
| Nc1nc(Nc2ccccc2)sc1C(=O)c1ccccc1 | CDK2 with cyclin A | enzyme activity, inhibitor |  | 10 µM |  | remaining activity | 2% |
| C=CC(=O)Nc1cccc(-c2cnc3[nH]cc(C(=O)NC(C)(C)C)c3n2)c1 | CDK2 | enzyme activity, inhibitor |  | 0.1 µM |  | inhibition | 19% |
| O=C(Cc1ccc(OCc2ccccc2)cc1)NC1(C(=O)O)CCN(C(=O)c2ccc(-c3cccc(Cl)c3)cc2)CC1 | CDK2 with cyclin A | enzyme activity, inhibitor |  | 10 µM |  | activity vs control | 122% |
| O=c1c(-c2ccc(Cl)c(CN3CCOCC3)c2)coc2cc(O)ccc12 | CDK2 with cyclin A | enzyme activity, inhibitor |  | 1 µM |  | remaining activity | 113% |
| NC(=O)C[C@H]1CCc2sc3ncnc(O[C@H]4CC[C@H](N5CCOCC5)CC4)c3c21 | CDK2 with cyclin A | enzyme activity, inhibitor |  | 10 µM |  | inhibition | 19% |
| CNC(=O)C[C@H](Cc1ccc(C#N)cc1)NC(=O)c1cc(-c2ccc(CN[C@H](C)c3ccc(C)cc3)o2)ccc1Cl | CDK2 with cyclin A | enzyme activity, inhibitor |  | 1 µM |  | activity vs control | 105% |
| Cc1ccc(-c2c(/C=C(\C#N)C(=O)NC(C)C)n(CCCO)c3ncnc(N)c23)cc1 | CDK2 | cell-free assay, competition with immobilised ligand |  | 1 µM |  | remaining binding | 82% |
| CCc1nnc(Nc2cnc([C@@H]3CCCN(C(=O)CCc4cccnc4)C3)cn2)s1 | CDK2 | enzyme activity, inhibitor, ADP detection |  | 1 µM |  | activity vs control | 107% |

A few entries again:
| Structure (SMILES) | target | assay | test system | conditions | how to read | measurement | result |
| --- | --- | --- | --- | --- | --- | --- | --- |
| COc1c(Cl)cccc1Nc1c(-c2ccncc2C#C[C@@]2(C)CCCN2C(=O)/C=C/CN(C)C)[nH]c2c1C(=O)NCC2 | CDK2 | binding, competition with immobilised ligand |  | 3 µM |  | remaining binding | 97% |
| Nc1nc(Nc2ccccc2)sc1C(=O)c1ccccc1 | CDK2 with cyclin A | enzyme activity, inhibitor |  | 10 µM |  | remaining activity | 2% |
| C=CC(=O)Nc1cccc(-c2cnc3[nH]cc(C(=O)NC(C)(C)C)c3n2)c1 | CDK2 | enzyme activity, inhibitor |  | 0.1 µM |  | inhibition | 19% |
| O=C(Cc1ccc(OCc2ccccc2)cc1)NC1(C(=O)O)CCN(C(=O)c2ccc(-c3cccc(Cl)c3)cc2)CC1 | CDK2 with cyclin A | enzyme activity, inhibitor |  | 10 µM |  | activity vs control | 122% |
